Values quoted from earlier work, collected from citations in different studies.
Compare with care: the assays were run in different laboratories. Positions of bridges follow the written chain, without caps; N, C: chain ends. No end group written: not given here.
B1: camrelizumab; V domains shown; sequence looked up; VH EVQLVESGGGLVQPGGSLRLSCAASGFTFSSYMMSWVRQAPGKGLEWVATISGGGANTYYPDSVKGRFTISRDNAKNSLYLQMNSLRAEDTAVYYCARQLYYFDYWGQGTTVTVSS; VL DIQMTQSPSSLSASVGDRVTITCLASQTIGTWLTWYQQKPGKAPKLLIYTATSLADGVPSRFSGSGSGTDFTLTISSLQPEDFATYYCQQVYSIPWTFGGGTKVEIK
B2: CCL1; sequence looked up; chain KSMQVPFSRCCFSFAEQEIPLRAILCYRNTSSICSNEGLIFKLKRGKEACALDTVGWVQRHRKMLRHCPSKRK

Molecule = DRDRPECSTMVKYEQKLPSLGKYALKRAIKIKFGRK; target or system = Staphylococcus aureus; test system = peptide, ATCC 6538; quantity = MIC; value = 7 µM
Molecule = hepcidin; target or system = ferroportin; test = ferroportin internalization, cell-based; quantity = EC50; value = 67.8 nM
Molecule = HHLGGAKQAGDV; target or system = integrin αIIbβ3; test = AFM dynamic force spectroscopy; test system = peptide; quantity = dissociation rate constant; value = ~48 s⁻¹
Molecule = B1 (camrelizumab); target or system = PD-1 (human); test system = antibody, human, peripheral blood T cells; setting = intravenous, 200-400 mg single infusion; quantity = receptor occupancy duration; value = ≥ 28 days
Molecule = CHPQGPPC (disulfide 1-8 (inferred)) (disulfide); target or system = streptavidin; quantity = dissociation rate constant; value = 0.2 s⁻¹
Molecule = pegcetacoplan; target or system = Complement C3 (Homo sapiens, UniProt P01024); test system = human subjects; setting = subcutaneous, 45 mg single dose, lowest dose; scale = reference: placebo; quantity = serum level increase; value = no effect
Molecule = Relaxin; target or system = RXFP1; test = refers to: β-arrestin 2, GFP-tagged; setting = 1 µM, 60 min; quantity = β-arrestin-2 translocation; value = no effect
Molecule = fibrinogen; target or system = integrin αIIbβ3; test = laser trap; setting = together with: 50 pN force; quantity = bond lifetime; value = 0.8 s
Molecule = B2 (CCL1); target or system = CCR8 F290A mutant; test = IP accumulation, agonist; quantity = EC50; value = 6 nM
Molecule = IFFRRNKKMAVKVAINGFGRIGRLAFRQMFGRYIAKINPDNKKFKTMPSG; target or system = Staphylococcus aureus; test system = peptide, ATCC 6538; quantity = MIC; value = 9 µM
Molecule = GIP(1-30), human; target or system = GIP receptor; test system = CHO; scale = reference: GIP(1-42); quantity = IC50 fold decrease; value = 11 fold

Repeated from above:
Molecule = IFFRRNKKMAVKVAINGFGRIGRLAFRQMFGRYIAKINPDNKKFKTMPSG; target or system = Staphylococcus aureus; test system = peptide, ATCC 6538; quantity = MIC; value = 9 µM
